Assay results gathered from unrelated publications.
Numbered parts are unrelated; each lists some results of a single study.

Series 1
Target: PABPC1L2, full length, GST fusion (mouse, UniProt A0ABA7IW68)
Method: RNAcompete
Molecule type: RNA
Matrix: in vitro
Concentration: 20 nM
Notes: 7-mer, probes averaged, single round
Baseline: mean of 7-mers
Direction: higher = stronger binding
Residues (chain): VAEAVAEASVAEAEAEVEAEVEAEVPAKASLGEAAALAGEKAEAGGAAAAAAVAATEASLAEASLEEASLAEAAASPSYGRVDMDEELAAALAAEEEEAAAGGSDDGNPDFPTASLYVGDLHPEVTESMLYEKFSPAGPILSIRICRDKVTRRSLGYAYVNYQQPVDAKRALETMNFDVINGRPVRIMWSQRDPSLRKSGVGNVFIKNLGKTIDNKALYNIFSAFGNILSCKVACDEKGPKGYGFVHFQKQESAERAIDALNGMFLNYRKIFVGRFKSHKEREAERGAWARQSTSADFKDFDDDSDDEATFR
| Sequence | 7-mer Z-score |
| --- | --- |
| UCAGCAC | -0.124 |
| GUCUGAG | -0.113 |
| AUGCCGC | -0.238 |
| UAGCUAG | -0.0863 |
| UGCAGAU | -0.101 |
| GAAGUGA | -0.0192 |
| UAUUCAU | -0.24 |
| CAGAAGA | 0.22 |
| CCUCAAG | -0.302 |
| UGCGCCG | -0.275 |
| CAGCGAA | 0.0515 |
| AACUGCC | 0.195 |
| ACUCGGG | 0.211 |
| UCAAGUU | -0.344 |
| CACUGAU | -0.269 |
| CGGGCUU | 0.0207 |
| UUGCCAA | 0.0279 |
| GGUGUUU | -0.391 |
| GAUCAUG | -0.119 |
| UGCCGUA | -0.36 |
| GCGCUGC | -0.249 |
| GCUGCUU | -0.316 |
| UCAUUUG | -0.416 |
| CACCCCA | -0.374 |
| GAGAUCG | -0.0591 |

Series 2
Target: Sal-like protein 4, full length isoform B (SALL4, Homo sapiens, UniProt Q9UJQ4-2, residues 1-616)
Method: universal PBM
Molecule type: double-stranded DNA, one strand shown
Matrix: in vitro
Concentration: not given
Notes: 8-mer, flanks averaged, mean of replicates
Direction: higher = stronger binding
Residues (chain): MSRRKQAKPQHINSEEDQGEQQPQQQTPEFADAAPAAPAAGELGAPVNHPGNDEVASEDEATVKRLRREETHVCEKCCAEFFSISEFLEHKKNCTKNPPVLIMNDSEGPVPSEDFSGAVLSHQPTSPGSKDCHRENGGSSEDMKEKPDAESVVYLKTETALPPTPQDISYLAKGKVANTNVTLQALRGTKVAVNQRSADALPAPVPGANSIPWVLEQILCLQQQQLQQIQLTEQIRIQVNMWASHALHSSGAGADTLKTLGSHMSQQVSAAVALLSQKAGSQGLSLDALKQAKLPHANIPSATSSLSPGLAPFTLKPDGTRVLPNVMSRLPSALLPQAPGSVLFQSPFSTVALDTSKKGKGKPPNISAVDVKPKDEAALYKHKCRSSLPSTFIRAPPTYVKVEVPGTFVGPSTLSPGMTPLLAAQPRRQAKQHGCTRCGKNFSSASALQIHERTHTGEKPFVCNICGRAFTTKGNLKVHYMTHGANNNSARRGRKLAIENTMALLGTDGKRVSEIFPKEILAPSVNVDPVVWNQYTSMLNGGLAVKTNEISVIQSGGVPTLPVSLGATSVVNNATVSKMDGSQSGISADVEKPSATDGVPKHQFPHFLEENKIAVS
| Sequence | E-score |
| --- | --- |
| ACGCCATG | 0.0241 |
| AGATGTTC | 0.0706 |
| GTATTTCA | 0.283 |
| AACGGCGC | -0.369 |
| AGACAGTG | -0.0757 |
| CAGAGATA | 0.201 |
| CCAAACAC | -0.0214 |
| CTTACCCC | -0.271 |
| GTTACGCA | 0.0509 |
| ATGTGTTG | 0.267 |
| ACCCAATC | -0.052 |
| CTGGGGCC | -0.373 |
| CACCGGAA | -0.00883 |
| ACCGTAAT | 0.159 |
| CTTAGCAC | -0.0548 |
| GCGTTACC | -0.197 |
| GTTCCTAA | -0.052 |
| CGTTAAAG | -0.0416 |
| ATCAGCGA | -0.0531 |
| ACAGGACT | -0.102 |
| AAAGTAAT | 0.306 |
| AGTAAGAC | 0.00084 |
| CTCGGAAG | -0.181 |
| CAACAACA | 0.186 |
| CGTACCAC | -0.027 |

Series 3
Target: RNA binding protein fox-1 homolog 2, RRM domain, GST-SBP tag (RBFOX2, Homo sapiens, UniProt O43251-10, residues 100-194)
Method: RNA Bind-n-Seq
Molecule type: RNA
Matrix: in vitro
Concentration: 365 nM
Notes: natural RNA segment, single round, ends assumed
Baseline: no-protein control
Direction: higher = stronger binding
Residues (chain): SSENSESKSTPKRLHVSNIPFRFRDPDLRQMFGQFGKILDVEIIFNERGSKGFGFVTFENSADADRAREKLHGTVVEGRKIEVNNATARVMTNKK
| Sequence | RBNS enrichment (R) |
| --- | --- |
| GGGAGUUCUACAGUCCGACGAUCAAGGAAUCAAAUUUAUUGAAUUUUAUUAUUGAAAGUUGAAAUAAGAUGUAUGAACAAAAAAAAAUCAAUAAAAGAAUAUACUCUUUUCAUGGACUGUAGUAGUAUGUGAAUGGAAUUCUCGGGUGCCAA | 6.52 |
| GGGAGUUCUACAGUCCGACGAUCUAUCCCAUGUUCCCAGAAAGCUGUGUACUAGUUAAAAACUCUUUUGUCAAGGGGUAGGGAUAGUGGAGAGGCAGAGGAUGGAAUCAGAAUUAUCUGGGCAUUUCCUUAUUUGGAAUUCUCGGGUGCCAA | 0.32 |
| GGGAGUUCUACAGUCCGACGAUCAUCCAACAACUAAAGAAUAAUCAUUGAAUGCGCGCAGUCGGUCCCUCACAGAGUGGCCCGUAUCACUCCCCACGUCUGUAGACACAUGGCUUUGAAUGAUUACUAUUUGGUGGAAUUCUCGGGUGCCAA | 0.633 |
| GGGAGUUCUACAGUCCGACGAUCCCUGUGUGUCACUUCCCUCACCUCACAGGCUGUGACCCUACCCUGGGUCCCUUGUACAUAACUCCUUGUGACAAAACCCUCUGGAAGUUCUGGACCCCAUUUUUGAUAGGUGGAAUUCUCGGGUGCCAA | 0.387 |
| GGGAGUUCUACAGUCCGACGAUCGGUGGCUGUUAACCACCCGCCCCGCCCCCUCCCUGCUCCCAGCUCUCUCUCCUGGAGUCUGAAGCCUGCAGGUCCGGGGAGGAGGUUCGGGAUUCCCUGGUGGGCCUCGAUGGAAUUCUCGGGUGCCAA | 1.17 |
| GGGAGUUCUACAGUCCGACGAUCGGUCAGUGUUUACUGUUUUAUAUAUGCCUUCUUUUUCCUGUUUGAGCUUCUCUCUCUGAAGGAUUCUAACAGAACAAAAGCUGCUGAUCAACCUAAGUUGGAAACAGAAAUGGAAUUCUCGGGUGCCAA | 0.481 |
| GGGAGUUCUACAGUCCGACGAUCCUGGCUAGCCCAAGGGCCCUGCCAUGUUCUCCCCACAUCCGUAAAUAAACUUCCUUUCCCACACUGUAUCUGUGAGGAGGUUUCCUUGCCAGGUGUCUGAGGGCUCUGGAUGGAAUUCUCGGGUGCCAA | 0.32 |
| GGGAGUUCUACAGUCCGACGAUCGUCAACCAAAGAUGGCAUGACUUACCUGCGCAGAUUUGGAAGCAUUGAACUUAGAGUGCUGGCUCUGCUAUAUGGUACAACUAAUGCUAGACCUACAGUUUAUGUAUACAUGGAAUUCUCGGGUGCCAA | 0.668 |

Series 4
Target: Interferon regulatory factor 5, full length, phosphomimetic (IRF5, Homo sapiens, UniProt Q13568-2, residues 1-514, S451D/S453D/S456D/S462D)
Method: protein-binding microarray
Molecule type: double-stranded DNA, one strand shown
Matrix: in vitro
Concentration: 940 nM top
Notes: 60-bp whole probe
Added: salmon DNA 0.4 mg/ml
Baseline: random background probes
Direction: higher = stronger binding
Constant ends, left off below: GCCTAGCAC … GTCTTGATTCGCTTGACGCTGCTG
| Sequence | fitted relative affinity |
| --- | --- |
| TCATTTTATGCTTTCTTACTGTGCTAG | 1.41 z-score |
| TTAGATCTCAGACTGGATTGGTGCTAG | -0.314 z-score |
| GACAGACTGGGGACTGGGGACGTGCTA | 0.0162 z-score |
| GACGATCTCGGACTGGGGACGTGCTAG | 0.134 z-score |
| TTTGAACTGAGACTGGATTAGTGCTAG | 0.0111 z-score |
| TCATACTTCTGTTTTTGACTGTGCTAG | 0.381 z-score |
| ATGTTCACTGTGTACCGTCTGTGCTAG | -0.157 z-score |
| TTAGGACTGGGGTTTAGGTTAGTGCTA | 0.329 z-score |
| GAGGGTTTCGACTATCGGGACGTGCTA | 6.48 z-score |
| TTAGGTTTCGGGACTGGTTTAGTGCTA | 8.15 z-score |
| GACGGACTGGACACTTGGGACGTGCTA | -0.45 z-score |
| GACGGCTTCGGTATCGGGACGTGCTAG | 1.07 z-score |
| TTTGCTTTCATTTATTTACTGTGCTAG | 2.85 z-score |
| GACGATCTCAGTTACGAGACGTGCTAG | -0.0246 z-score |
| CACGATATCAGTTTCGAGACGTGCTAG | 3.91 z-score |
| AGGTGGGAGGGGACAGTGGTGTGCTAG | 1.24 z-score |
| TCAAGTCTCAACCCCCAAACTGTGCTA | 1.05 z-score |
| GAAGGTATCGACTTTCGGGACGTGCTA | 3.31 z-score |
| ATAGATTTCGGGTTTCGATTAGTGCTA | 5.69 z-score |
